Measurements from different studies.
Every numbered part comes from another study and shows a few of its results, in no order.
Chain of UniProt O95382 (whole entry, looked up): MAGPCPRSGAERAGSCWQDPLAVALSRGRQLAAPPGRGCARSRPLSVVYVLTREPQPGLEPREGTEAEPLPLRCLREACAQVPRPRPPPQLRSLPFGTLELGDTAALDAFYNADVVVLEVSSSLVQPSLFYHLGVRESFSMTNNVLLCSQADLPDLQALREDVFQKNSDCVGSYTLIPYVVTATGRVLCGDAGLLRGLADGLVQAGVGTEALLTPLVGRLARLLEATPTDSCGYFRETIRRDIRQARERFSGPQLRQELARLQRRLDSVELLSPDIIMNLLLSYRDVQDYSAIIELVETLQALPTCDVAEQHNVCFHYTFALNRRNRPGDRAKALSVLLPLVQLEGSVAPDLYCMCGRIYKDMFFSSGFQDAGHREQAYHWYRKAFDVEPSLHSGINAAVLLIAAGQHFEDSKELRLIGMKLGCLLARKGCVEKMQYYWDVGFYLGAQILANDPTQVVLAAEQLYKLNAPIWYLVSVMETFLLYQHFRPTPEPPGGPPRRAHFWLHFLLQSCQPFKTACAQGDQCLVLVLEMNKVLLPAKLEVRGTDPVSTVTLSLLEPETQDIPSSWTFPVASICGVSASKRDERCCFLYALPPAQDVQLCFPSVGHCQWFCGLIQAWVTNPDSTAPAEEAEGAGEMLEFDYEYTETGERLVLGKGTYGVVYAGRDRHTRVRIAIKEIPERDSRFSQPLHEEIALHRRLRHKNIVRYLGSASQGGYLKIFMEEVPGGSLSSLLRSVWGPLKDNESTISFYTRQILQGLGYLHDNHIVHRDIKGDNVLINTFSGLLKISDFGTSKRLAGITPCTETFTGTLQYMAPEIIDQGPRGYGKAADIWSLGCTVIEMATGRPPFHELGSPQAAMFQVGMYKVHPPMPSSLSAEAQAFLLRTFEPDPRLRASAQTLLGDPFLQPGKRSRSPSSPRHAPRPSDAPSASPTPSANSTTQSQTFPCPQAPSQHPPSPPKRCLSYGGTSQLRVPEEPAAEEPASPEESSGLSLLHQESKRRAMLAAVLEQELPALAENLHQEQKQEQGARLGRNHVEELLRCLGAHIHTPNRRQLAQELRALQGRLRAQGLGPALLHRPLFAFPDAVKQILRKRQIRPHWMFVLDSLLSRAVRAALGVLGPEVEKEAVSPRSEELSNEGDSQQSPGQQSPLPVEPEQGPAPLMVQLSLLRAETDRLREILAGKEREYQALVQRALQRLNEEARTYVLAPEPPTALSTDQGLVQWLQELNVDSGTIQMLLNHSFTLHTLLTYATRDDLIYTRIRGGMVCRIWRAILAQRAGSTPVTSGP
Chain of UniProt Q96BR1 (whole entry, looked up): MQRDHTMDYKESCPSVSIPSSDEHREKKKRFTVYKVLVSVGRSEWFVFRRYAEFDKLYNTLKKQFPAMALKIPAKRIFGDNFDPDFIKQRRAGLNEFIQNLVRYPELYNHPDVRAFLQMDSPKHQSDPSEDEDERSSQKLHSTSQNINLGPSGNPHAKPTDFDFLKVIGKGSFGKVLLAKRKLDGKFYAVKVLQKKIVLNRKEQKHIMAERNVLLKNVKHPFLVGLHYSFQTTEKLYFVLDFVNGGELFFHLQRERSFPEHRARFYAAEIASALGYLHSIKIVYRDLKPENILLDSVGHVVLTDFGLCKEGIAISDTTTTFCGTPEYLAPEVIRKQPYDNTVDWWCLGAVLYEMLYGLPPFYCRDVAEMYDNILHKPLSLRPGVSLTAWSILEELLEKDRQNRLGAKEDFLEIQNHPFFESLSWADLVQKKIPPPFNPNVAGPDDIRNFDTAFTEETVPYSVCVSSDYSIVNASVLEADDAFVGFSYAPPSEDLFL

Sample 1
Target: Phosphate system positive regulatory protein PHO4, full length, GST-tagged (PHO4, Saccharomyces cerevisiae, UniProt P07270, residues 1-312)
Method: competition protein-binding microarray
Form: double-stranded DNA, one strand shown
Medium: in vitro
Concentration: 2 µM
Setting: whole 60-bp probe, lowest competitor level
Together with: Cbf1 competitor, 0.05 µM
Reading: higher = stronger binding
Constant ends, left off below: … GTCTTGATTCGCTTGACGCTGCTG
Residues (chain): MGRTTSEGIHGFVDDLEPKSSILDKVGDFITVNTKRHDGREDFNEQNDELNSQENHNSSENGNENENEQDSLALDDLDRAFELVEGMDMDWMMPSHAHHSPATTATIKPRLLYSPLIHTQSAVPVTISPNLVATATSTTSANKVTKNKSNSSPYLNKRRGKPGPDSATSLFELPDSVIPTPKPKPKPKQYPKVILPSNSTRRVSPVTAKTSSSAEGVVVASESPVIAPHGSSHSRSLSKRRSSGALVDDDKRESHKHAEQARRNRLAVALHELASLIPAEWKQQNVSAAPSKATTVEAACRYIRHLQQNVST
With `AACCAGTTGTTAAATCATGTGGTTATGGTCTTGTCG` the fluorescence intensity was 8120 a.u.
`TATCTCGCTCACCATCACGGCCGCCGCCATTCCCGA` has a fluorescence intensity of 3920 a.u.
The fluorescence intensity of `CTTTCCCGATCTTGCACAGTGGGTGTAGCACATTTG` is reported as 4850 a.u.
With `CGACAAATAGTAGCTCGCGTGGCCGAATGGCAACGC` the fluorescence intensity was 6950 a.u.
`GTCTTGTCTCATTTTCACGTGCTTTTCCCCACTTCA` gave a fluorescence intensity of 15700 a.u.
The fluorescence intensity of `CGGGGTTAAGTTTGAACAGTGGGTGGCTTGCAGCAG` is reported as 4780 a.u.
With `CATACCCAACCTTGCACTGTGGGTGAAGATATTTGT` the fluorescence intensity was 4570 a.u.
For `ATAAGTAAACTCTCACACATGCTAACTTCTGTTGGG`, the fluorescence intensity was 9310 a.u.

Sample 2
Target: Ras GTPase-activating protein-binding protein 1, C-terminal RGG region (G3BP1, Homo sapiens, UniProt Q13283)
Chain of UniProt Q13283 (whole entry, looked up): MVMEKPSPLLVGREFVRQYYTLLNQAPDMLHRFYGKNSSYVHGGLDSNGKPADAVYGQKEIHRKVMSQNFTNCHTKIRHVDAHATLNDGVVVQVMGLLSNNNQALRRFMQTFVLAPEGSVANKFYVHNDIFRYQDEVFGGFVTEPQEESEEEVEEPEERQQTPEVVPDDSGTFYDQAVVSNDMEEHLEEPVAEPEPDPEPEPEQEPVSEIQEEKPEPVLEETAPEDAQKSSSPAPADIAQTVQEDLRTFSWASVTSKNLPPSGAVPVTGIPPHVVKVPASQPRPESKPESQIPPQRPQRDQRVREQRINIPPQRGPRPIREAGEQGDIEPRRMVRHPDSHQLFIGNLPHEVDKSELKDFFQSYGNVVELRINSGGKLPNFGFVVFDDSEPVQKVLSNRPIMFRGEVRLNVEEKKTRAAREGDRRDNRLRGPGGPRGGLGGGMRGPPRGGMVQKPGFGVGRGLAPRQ
Method: RNA Bind-n-Seq
Form: RNA
Medium: in vitro
Concentration: 1 µM
Setting: whole 134-nt RNA, ends assumed
Together with: 150 mM KCl
Relative to: input library
Reading: higher = stronger binding
Constant ends, left off below: GGGAGUUCUACAGUCCGACGAUC … UGGAAUUCUCGGGUGUCAAGG
`AGUCCUGUGCUACACAUCGUAUGUACCGAAUCGGGUUUUGGGGUUUUGGUUUUGGGGAAAGUAUUAUGUUACGCCGUUCGGAUCUGCACU` has a log2 enrichment of -0.398.
The log2 enrichment of `GUCCUGUGCUACACAUCGUAUGUACCGAAUCAAAUUUUUAAAUUUAAAUUUUUUUAAAAAAGUAUUAUGUUACGCCGUUCGGAUCUGCAC` is reported as -2.22.
`GCAGGAAGUAAAAACAAAUGGAAAUGCUUCGAAAAGUGGCAGGGGUGGGGGUUGCUAAGGAAAGGGUGGGAUGGGAGUGGGUAAAGAGUU` gave a log2 enrichment of 1.91.
`AGUCCUGUGCUACACAUCGUAUGUACCGAAUCGGGGAAAAGGGGAAAAGGGAAAAGGAAAGUAUUAUGUUACGCCGUUCGGAUCUGCACU` has a log2 enrichment of -0.946.
`UGGGAGGUGGAUUUUGUUUAUUUUUUUAGCUCAUUUCCAGGGGUGGGAAUUUUUUUUGAAUAUGUGUCAUGAAUAAAGUUGUUUUUGAAA` gave a log2 enrichment of 3.47.
`GAACUUUAGAGGAGGAUCUGAUGGAUAUGGCAGUGGACGUGGAUUUGGGGAUGGCUAUAAUGGGUAUGGAGGAGGACCUGGAGGUGGCAA` gave a log2 enrichment of -0.863.
The log2 enrichment of `AAGUCCUGUGCUACACAUCGUAUGUACCGAAUCGGGUUUGGGUUUUUGGGUUUGGGAAAGUAUUAUGUUACGCCGUUCGGAUCUGCACUU` is reported as 1.15.
`CAAGUCCUGUGCUACACAUCGUAUGUACCGAAUCGUGUGUGUGUGUGUGUGUGUGUAAAGUAUUAUGUUACGCCGUUCGGAUCUGCACUU` gave a log2 enrichment of 1.15.

Further values, each from its own experiment
With `Cc1nc(Cc2cccc(C(F)(F)F)c2)sc1-c1ccc(C(N)=O)nc1` the remaining binding was 99% (MAP3K6 (Homo sapiens, UniProt O95382); cell-free assay, competition with immobilised ligand; 1 µM).
For `CCOC(=O)[C@@H]1CSCC(=O)N[C@H](CC)C(=O)N(C)[C@@H](C)C(=O)N[C@H](CC(C)C)C(=O)N2CCC[C@@H]2C(=O)N(CC)CC(=O)N[C@H](CC(C)C)C(=O)N(C)[C@H](C)C(=O)N[C@@H](CC(C)C)C(=O)N1C`, the logD was 0.307 (hydrocarbon/water).
`COc1ccc2cc(OCC3(C(=O)O)CN(C(=O)c4ccc(F)cc4)C3)ccc2c1` gave a remaining binding of 100% (SGK3 (Homo sapiens, UniProt Q96BR1); cell-free assay, competition with immobilised ligand; 1 µM).
For `CCC[C@@H]1NC(=O)CSC[C@@H](C(=O)OCC)N(C)C(=O)[C@H](CC(C)C)NC(=O)[C@@H](C)N(C)C(=O)[C@@H](CC(C)C)NC(=O)[C@H](C)N(C)C(=O)[C@H]2CCCN2C(=O)[C@H](CC(C)C)NC(=O)CN(CCC)C1=O`, the logD was 0.691 (hydrocarbon/water).
